Assay results of several laboratories.
± marks the error that the study gave.

SMILES = CCCCCCCOC(=O)Cc1c(C)n(C(=O)c2ccc(Cl)cc2)c2ccc(OC)cc12; test = hot plate test; test system = BALB/c mice; conditions = 50 mg/kg, 0 min; quantity = latency of nociceptive response; value = 10.1 ± 0.8 s
SMILES = CC/C=C\C/C=C\C/C=C\C/C=C\C/C=C\CCCCOC(CC)C(=O)O (centres unmarked); test system = ob/ob mice; conditions = dose not given, 4 weeks; how to read = reference: control; quantity = plasma ALT change; value = -33%
SMILES = CC(=O)N/C(N)=N/C(=N\S(=O)(=O)c1ccc(C(F)(F)F)cc1)N1C[C@H](c2ccccc2)C(c2ccc(Cl)cc2)=N1; test = intraperitoneal insulin sensitivity test; test system = β-arrestin 2 knockout mouse, diet-induced obese; conditions = 3 mg/kg/day; quantity = insulin sensitivity; value = no effect
SMILES = CCCCCCCCCC(=O)OCc1cn(-c2ccc(Cl)cc2)nn1; test = prothrombin time; test system = human plasma; conditions = 1 µM; quantity = clotting time; value = 16.4 ± 2 s
SMILES = C=C1C(=O)OC2C1CCC1(C)OC13CC1OC1(C)C23 (single isomer, unassigned); test system = sarcoma 45, outbred white rat; conditions = intraperitoneal, maximum tolerated dose, daily, 5 days; quantity = tumour growth inhibition; value = 78 to 88%
SMILES = CC(C)[C@H](NC(=O)CN)C(=O)N[C@@H](CCCCN)C(=O)NCC(=O)N[C@@H](CC(=O)O)C(=O)N[C@@H](CCCCN)C(=O)NCC(=O)N[C@@H](CC(N)=O)C(=O)N1CCC[C@H]1C(=O)NCC(=O)N[C@@H](Cc1c[nH]c2ccccc12)C(=O)N1CCC[C@H]1C(=O)NCC(=O)N[C@@H](C)C(=O)N1CCC[C@H]1C(=O)O; test system = K1735 M4 melanoma, mouse; conditions = up to 500 µg/mL, soluble peptide, with: type I collagen coating 5 µg/mL; quantity = cell adhesion; value = no effect
SMILES = OCc1cnn(-c2ccccc2)n1; test = plasma recalcification time; test system = human plasma; conditions = 10 µM; quantity = clotting time; value = 281 ± 12 s
SMILES = CCC1C=CC2CCN(C(=O)C3CCC4C=CC5(CCCN5C(=O)C(Cc5ccccc5Cl)NC(C)=O)C(=O)N43)C2C(=O)N1CC(=O)OC (centres unmarked); test system = mouse, orthotopic PANC-1 xenograft; conditions = subcutaneous, 100 mg/kg twice daily, 48 d; quantity = primary tumour size; value = no effect
SMILES = CC[C@H]1[C@@H](O)[C@@H]2[C@H](CC[C@]3(C)[C@@H]([C@H](C)CCOS(=O)(=O)[O-])CC[C@@H]23)[C@@]2(C)CC[C@@H](O)C[C@@H]12.[Na+]; test = EchoMRI; test system = ob/ob NASH mouse model; conditions = oral, 3 mg/kg once daily, 8 weeks; quantity = whole-body lean mass; value = 17.6 ± 0.5 g
SMILES = CCOC(=O)C(Cc1cccc(O)c1)OC(=O)C=Cc1ccc(O)c(O)c1C=Cc1ccc(O)c(O)c1 (centres unmarked); test system = C57 wild-type mice, isoproterenol-induced myocardial ischemia, serum; conditions = oral, 10 mg/kg pretreatment for 7 days, with: isoproterenol 3 mg/kg; how to read = reference: normal group; quantity = serum AST level; value = 115 ± 10%
SMILES = C=C(c1ccc(C(=O)O)c(F)c1)c1cc2c(cc1C)C(C)(C)C=CC2(C)C; test = RNA sequencing, measured: Cyp26a1 mRNA; test system = rat, brain; conditions = dose not given, 24 h, single dose; how to read = reference: vehicle; quantity = log2 fold change; value = 0.15
SMILES = CCOP(=O)(CC(=O)Nc1ccc(S(=O)(=O)N(CC(N)=O)c2ccc(N(CC(N)=O)S(=O)(=O)c3ccc(OC)cc3)c3ccccc23)cc1)OCC; test = active avoidance test; test system = APP/PS1 mice; conditions = intragastric, 40 mg/kg, 60 days, lentivirus intracerebroventricular; how to read = reference: untreated APP/PS1; quantity = active avoidance count; value = increased
SMILES = CSc1cc(C)[nH]c(=O)c1CN1CCc2c(Cl)c3c(c(C)c2C1=O)OC(C)(C1CCC(N(C)C)CC1)O3 (centres unmarked); test system = mouse, KARPAS-422 xenograft; conditions = oral, 10 mg/kg once daily; quantity = time to tumour regression; value = ~12 days
SMILES = CN(Cc1ccc(/C=C/C(=O)Nc2ccccc2N)cc1)CC12CC3CC(CC(C3)C1)C2; test = forced swim test; test system = rat; conditions = i.p., 0.1 mg/kg, 7 days; how to read = reference: vehicle; quantity = immobility time reduction; value = 17%
SMILES = Cc1sc(-c2ccc(C(F)(F)F)cc2)nc1-c1nn[nH]c1C#N; test system = male ZDF rat; conditions = oral, 10 mg/kg/day, 1008 h; how to read = reference: vehicle; quantity = HbA1c reduction; value = 1.3 percentage points
SMILES = C[C@H]1CN(C(=O)c2cn(-c3ccnc(N)n3)c3cc(C#CC4(O)CCCCC4)ccc23)CCN1; test system = A549 xenograft, zebrafish embryo; conditions = dose not given, 48 h; quantity = tumour proliferation; value = no effect
SMILES = CN1Cc2c(Cl)cc(Cl)cc2C(c2ccc(S(=O)(=O)NCCOCCOCCNC(=O)C(O)C(O)C(=O)NCCOCCOCCNS(=O)(=O)c3ccc(C4CN(C)Cc5c(Cl)cc(Cl)cc54)cc3)cc2)C1 (centres unmarked); test system = Sprague Dawley rats; conditions = oral, 3 mg/kg, 16 h; quantity = fecal water content; value = 59 % by weight
SMILES = S=c1n(CN2CCN(c3ccccc3)CC2)nc(C23CC4CC(CC(C4)C2)C3)n1-c1ccccc1; test system = rat carrageenan paw oedema; conditions = intraperitoneal, 20 mg/kg, 4 h after carrageenan; how to read = reference: vehicle control; quantity = paw oedema inhibition; value = 22.5 ± 5.25%
SMILES = CCC1CC2C(C)=CC3C(=O)CCCC3C=CC(C)=CC2C(=O)O1 (centres unmarked); test = dot blot; test system = 5XFAD transgenic mouse, cortex RIPA-soluble lysate; conditions = oral gavage, 30 mg/kg/day, 5 days; how to read = reference: vehicle; quantity = total soluble Aβ reduction; value = 27.4%
SMILES = O=C(O)C1OC(OC2C(COS(=O)(=O)O)OC(OC3C(C(=O)O)OC(OC4C(COS(=O)(=O)O)OC(OC5C(C(=O)O)OC(OC6C(COS(=O)(=O)O)OC(OC7C(C(=O)O)OC(OC8C(COS(=O)(=O)O)OC(OC9C(C(=O)O)OC(OC%10C(COS(=O)(=O)O)OC(OC%11C(C(=O)O)OC(Oc%12ccc([N+](=O)[O-])cc%12)C(O)C%11O)C(NS(=O)(=O)O)C%10O)C(OS(=O)(=O)O)C9O)C(NS(=O)(=O)O)C8O)C(OS(=O)(=O)O)C7O)C(NS(=O)(=O)O)C6O)C(OS(=O)(=O)O)C5O)C(NS(=O)(=O)O)C4O)C(OS(=O)(=O)O)C3O)C(NS(=O)(=O)O)C2OS(=O)(=O)O)C(O)C(O)C1OC1OC(COS(=O)(=O)O)C(O)C(O)C1NS(=O)(=O)O (centres unmarked); test system = BERK sickle cell mice, plasma; conditions = subcutaneous, 2.0 mg/kg every 8 h for 7 days; quantity = plasma TAT complexes; value = decreased
SMILES = Cc1cc2c(cc1C1(c3ncc(C(=O)O)cn3)CC1)C(C)(C)CCC2(C)C; test = RNA sequencing, measured: Ccl6 mRNA; test system = rat, brain; conditions = dose not given, 24 h, single dose; how to read = reference: vehicle; quantity = log2 fold change; value = -1.39
SMILES = CC(=O)Oc1cc2c(s1)CCN(C(C(=O)C1CC1)c1ccccc1F)C2 (centres unmarked); test = ADP-induced platelet aggregation, LTA, >59% aggregation; test system = human patients, platelet-rich plasma; conditions = dose not given, 3 h, with: ADP 20 µM; quantity = patients with high reactivity; value = 29%
SMILES = CC(=O)c1cnc(N)nc1N1CC[C@H]1c1nn2ccc(Cl)c2c(=O)n1-c1ccccc1; test = B cell activation, inhibitor, measured: CD86; test system = female Wistar rat, blood; conditions = oral, 2 h, with: anti-IgD; quantity = ED50; value = ~0.14 mg/kg
SMILES = CC(C)C1=C(OC(=O)CCc2ccccc2)C(=O)C2=C(C=C[C@H]3C(C)(C)CCC[C@]23C)C1=O; test = oxygen radical absorbance capacity, fluorometric; quantity = ORAC; value = 0.757 Trolox equivalents
SMILES = Nn1c(S)nnc1CCN(c1ccc(Cl)cc1)S(=O)(=O)c1ccccc1; test = paw oedema; test system = rat carrageenan oedema; conditions = 200 mg/kg, 1 h; quantity = inhibition; value = 43.6%
SMILES = Cc1cc(O)c(C=O)c2c1C(=O)Oc1c(CO)c(O)c3c(c1O2)C(O)OC3=O (centres unmarked); test = histopathology; test system = rat, male, streptozotocin-induced diabetes, testis; conditions = 5 mg/kg, 9 weeks; quantity = seminiferous epithelium height; value = 56.2 ± 3.36 µm
SMILES = O=C([O-])CN1CCN(CC(=O)[O-])CCN(CC(=O)NC[C@H]2CC[C@H](C(=O)N[C@H](Cc3cnc4ccccc4c3)C(=O)NCCCC[C@H](NC(=O)N[C@@H](CCC(=O)O)C(=O)O)C(=O)O)CC2)CCN(CC(=O)[O-])CC1.[64Cu+2]; test = measured: prostate cancer; test system = patients suspected prostate cancer, PSMA PET/CT-targeted biopsy cores; quantity = detection rate; value = 88.9%
SMILES = O=S(=O)(c1ccccc1)N(CCc1nnc(S)o1)c1ccccc1; test system = rat; conditions = 100 mg/kg, 3 h, with: carrageenan; quantity = paw edema inhibition; value = 43.4%
SMILES = N=C(N)SCc1ccccc1CSC(=N)N; test = ELISA; test system = mouse, CT26-Ido1 tumour, tumour; conditions = dose not given; quantity = Kyn/Trp ratio; value = decreased
SMILES = COc1ccc(-n2cc(CO)nn2)cc1; test = aPTT; test system = human plasma; conditions = 10 µM; quantity = clotting time; value = 48.6 ± 9 s
SMILES = Cc1cc(Nc2cc3ncccc3c(N[C@@H]3C[C@H]4CC[C@@H](C3)N4CCC#N)n2)n[nH]1; test system = moderate-severe ulcerative colitis patients; conditions = 20 mg, day 28; how to read = reference: patients; quantity = endoscopic improvement; value = 20%
SMILES = CC(C)OC(=O)[C@H](CO)NCc1cc(Cl)c(OCc2cccc(-c3ccccc3)c2Br)cc1OCc1cccnc1; test system = hPD-L1 MC-38 tumour, humanised hPD-1 C57BL/6 mouse; conditions = oral, 2.5 mg/kg × 21; quantity = tumour weight inhibition; value = 40.5%
